Results pooled from the literature.
Each numbered part is a random draw from the data of one study; scales do not carry over between parts.
UniProt Q9H2K8, sequence (whole entry, looked up): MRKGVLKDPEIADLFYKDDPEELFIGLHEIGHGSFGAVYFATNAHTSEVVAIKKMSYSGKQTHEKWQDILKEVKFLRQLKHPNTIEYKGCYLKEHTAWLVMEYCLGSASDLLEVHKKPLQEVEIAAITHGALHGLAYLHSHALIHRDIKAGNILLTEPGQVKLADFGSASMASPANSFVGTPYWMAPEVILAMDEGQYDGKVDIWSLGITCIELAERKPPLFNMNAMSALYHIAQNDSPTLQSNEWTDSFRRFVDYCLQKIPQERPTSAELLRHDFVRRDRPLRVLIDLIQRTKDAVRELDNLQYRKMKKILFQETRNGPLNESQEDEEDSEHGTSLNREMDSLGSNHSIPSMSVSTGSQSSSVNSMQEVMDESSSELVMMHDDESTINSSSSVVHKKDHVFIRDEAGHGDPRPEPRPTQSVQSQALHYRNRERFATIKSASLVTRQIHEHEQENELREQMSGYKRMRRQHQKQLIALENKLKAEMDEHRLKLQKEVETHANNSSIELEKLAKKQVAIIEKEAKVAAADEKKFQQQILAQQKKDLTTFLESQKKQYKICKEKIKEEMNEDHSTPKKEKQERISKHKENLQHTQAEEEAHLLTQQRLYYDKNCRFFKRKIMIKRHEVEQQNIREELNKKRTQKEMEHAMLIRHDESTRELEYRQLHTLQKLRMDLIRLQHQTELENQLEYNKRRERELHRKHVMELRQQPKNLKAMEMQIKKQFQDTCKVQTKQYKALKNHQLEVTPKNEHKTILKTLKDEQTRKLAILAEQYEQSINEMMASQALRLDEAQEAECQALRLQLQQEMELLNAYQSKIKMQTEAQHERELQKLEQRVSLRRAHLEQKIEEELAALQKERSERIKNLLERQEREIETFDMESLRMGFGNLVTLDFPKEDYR
UniProt Q96SB4, sequence (whole entry, looked up): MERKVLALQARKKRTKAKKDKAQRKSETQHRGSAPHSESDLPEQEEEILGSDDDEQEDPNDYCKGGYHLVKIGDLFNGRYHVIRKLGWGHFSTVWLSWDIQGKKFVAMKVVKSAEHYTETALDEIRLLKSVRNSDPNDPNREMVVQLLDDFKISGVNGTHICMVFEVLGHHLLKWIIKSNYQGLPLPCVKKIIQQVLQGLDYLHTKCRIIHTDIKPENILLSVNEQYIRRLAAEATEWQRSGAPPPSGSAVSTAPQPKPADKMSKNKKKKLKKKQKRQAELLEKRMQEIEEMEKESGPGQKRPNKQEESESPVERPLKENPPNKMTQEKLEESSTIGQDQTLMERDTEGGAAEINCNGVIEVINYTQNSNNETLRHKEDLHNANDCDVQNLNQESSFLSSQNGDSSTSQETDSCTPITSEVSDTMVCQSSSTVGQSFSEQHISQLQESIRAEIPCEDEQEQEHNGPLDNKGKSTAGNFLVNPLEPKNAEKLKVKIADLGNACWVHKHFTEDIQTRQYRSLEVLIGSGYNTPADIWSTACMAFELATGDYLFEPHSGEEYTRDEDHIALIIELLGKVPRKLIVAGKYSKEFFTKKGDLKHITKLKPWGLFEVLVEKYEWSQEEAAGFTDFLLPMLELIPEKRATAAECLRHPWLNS
UniProt Q9NRP7, sequence (whole entry, looked up): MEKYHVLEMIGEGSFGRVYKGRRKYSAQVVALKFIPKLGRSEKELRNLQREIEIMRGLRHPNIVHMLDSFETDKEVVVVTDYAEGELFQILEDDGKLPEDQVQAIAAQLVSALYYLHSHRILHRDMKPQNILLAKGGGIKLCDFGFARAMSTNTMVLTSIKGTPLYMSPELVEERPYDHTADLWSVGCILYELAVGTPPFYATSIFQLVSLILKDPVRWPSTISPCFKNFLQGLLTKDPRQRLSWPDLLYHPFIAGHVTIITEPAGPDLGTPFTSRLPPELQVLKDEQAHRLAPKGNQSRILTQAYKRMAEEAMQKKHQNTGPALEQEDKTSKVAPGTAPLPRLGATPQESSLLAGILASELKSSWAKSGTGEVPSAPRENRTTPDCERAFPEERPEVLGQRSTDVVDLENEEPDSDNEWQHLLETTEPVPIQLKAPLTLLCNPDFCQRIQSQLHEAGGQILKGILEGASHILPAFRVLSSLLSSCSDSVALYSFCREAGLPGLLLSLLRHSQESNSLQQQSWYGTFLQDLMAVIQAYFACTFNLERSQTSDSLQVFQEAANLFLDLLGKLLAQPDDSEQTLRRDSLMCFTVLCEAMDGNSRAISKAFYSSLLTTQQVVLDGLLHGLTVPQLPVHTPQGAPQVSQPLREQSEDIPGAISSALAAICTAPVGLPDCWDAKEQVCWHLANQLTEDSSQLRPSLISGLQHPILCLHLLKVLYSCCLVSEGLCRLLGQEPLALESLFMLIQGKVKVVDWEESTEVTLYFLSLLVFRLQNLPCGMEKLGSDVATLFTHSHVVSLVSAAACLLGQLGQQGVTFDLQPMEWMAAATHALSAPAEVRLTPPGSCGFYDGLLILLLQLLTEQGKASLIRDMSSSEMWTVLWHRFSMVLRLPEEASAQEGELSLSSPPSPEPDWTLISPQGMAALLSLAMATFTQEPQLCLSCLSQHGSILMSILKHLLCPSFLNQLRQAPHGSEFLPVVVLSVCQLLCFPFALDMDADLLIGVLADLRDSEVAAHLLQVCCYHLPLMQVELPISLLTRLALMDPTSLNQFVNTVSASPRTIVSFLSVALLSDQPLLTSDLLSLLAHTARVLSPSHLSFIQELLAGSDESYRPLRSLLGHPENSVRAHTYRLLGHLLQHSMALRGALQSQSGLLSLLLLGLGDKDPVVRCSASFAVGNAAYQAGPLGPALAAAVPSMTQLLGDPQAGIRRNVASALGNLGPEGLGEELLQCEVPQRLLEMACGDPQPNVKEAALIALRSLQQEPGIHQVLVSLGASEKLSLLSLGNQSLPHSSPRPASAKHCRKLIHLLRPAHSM
UniProt Q9UQB9, sequence (whole entry, looked up): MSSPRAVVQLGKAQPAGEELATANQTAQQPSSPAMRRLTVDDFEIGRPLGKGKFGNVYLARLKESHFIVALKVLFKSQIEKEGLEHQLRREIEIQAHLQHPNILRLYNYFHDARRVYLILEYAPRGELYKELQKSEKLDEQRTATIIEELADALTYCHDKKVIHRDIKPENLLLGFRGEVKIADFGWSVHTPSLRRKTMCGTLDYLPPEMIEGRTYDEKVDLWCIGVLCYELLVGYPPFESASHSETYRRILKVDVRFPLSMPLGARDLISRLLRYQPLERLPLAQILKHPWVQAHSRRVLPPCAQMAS
UniProt P51956, sequence (whole entry, looked up): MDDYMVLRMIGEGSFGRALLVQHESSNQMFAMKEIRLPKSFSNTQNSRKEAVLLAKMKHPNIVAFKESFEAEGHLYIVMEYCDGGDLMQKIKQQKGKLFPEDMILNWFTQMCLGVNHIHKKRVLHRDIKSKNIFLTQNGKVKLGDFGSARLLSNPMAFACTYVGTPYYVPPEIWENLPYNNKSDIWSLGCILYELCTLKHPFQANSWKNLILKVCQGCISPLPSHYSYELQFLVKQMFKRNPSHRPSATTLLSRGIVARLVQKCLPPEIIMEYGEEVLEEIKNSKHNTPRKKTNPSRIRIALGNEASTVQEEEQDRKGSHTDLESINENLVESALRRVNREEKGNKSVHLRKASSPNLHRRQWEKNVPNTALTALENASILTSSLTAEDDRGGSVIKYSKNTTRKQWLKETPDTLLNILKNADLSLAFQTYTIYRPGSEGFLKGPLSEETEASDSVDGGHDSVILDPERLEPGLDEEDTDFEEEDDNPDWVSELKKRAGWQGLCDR
UniProt P19784, sequence (whole entry, looked up): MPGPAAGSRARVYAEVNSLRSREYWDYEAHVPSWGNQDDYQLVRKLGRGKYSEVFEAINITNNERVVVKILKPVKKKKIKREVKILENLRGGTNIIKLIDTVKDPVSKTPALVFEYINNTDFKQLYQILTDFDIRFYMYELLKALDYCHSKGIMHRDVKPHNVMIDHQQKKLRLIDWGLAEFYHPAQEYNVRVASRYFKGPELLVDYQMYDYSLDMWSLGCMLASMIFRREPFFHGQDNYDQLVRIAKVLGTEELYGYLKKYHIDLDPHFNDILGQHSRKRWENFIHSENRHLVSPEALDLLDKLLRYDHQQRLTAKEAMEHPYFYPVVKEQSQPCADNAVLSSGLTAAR

Sample 1
Compound: COc1cc(-c2cn(C3CCc4c(F)cccc4N(CC(F)(F)F)C3=O)nn2)ccc1-n1cnc(C)c1 (stereo not drawn)
Concentration: 1 µM
target | effect on | technique | remaining binding
TAOK3 (Homo sapiens, UniProt Q9H2K8) | cell-free assay | competition with immobilised ligand | 100%
ERN1 (Homo sapiens, UniProt O75460) | cell-free assay | competition with immobilised ligand | 100%
MAP3K1 (Homo sapiens, UniProt Q13233) | cell-free assay | competition with immobilised ligand | 100%
Ribosomal protein S6 kinase alpha-6, C-terminal kinase domain (RPS6KA6, Homo sapiens, UniProt Q9UK32) | cell-free assay | competition with immobilised ligand | 100%
BMPR1B (Homo sapiens, UniProt O00238) | cell-free assay | competition with immobilised ligand | 100%
WEE1 (Homo sapiens, UniProt P30291) | cell-free assay | competition with immobilised ligand | 79%
CSNK2A2 (Homo sapiens, UniProt P19784) | cell-free assay | competition with immobilised ligand | 100%
MARK4 (Homo sapiens, UniProt Q96L34) | cell-free assay | competition with immobilised ligand | 100%
CDK19 (Homo sapiens, UniProt Q9BWU1) | – | competition binding | 97%
FLT3 (Homo sapiens, UniProt P36888, D835V/ITD) | cell-free assay | competition with immobilised ligand | 100%
AKT2 (Homo sapiens, UniProt P31751) | cell-free assay | competition with immobilised ligand | 93%
MAP2K4 (Homo sapiens, UniProt P45985) | cell-free assay | competition with immobilised ligand | 93%
CDC42BPB (Homo sapiens, UniProt Q9Y5S2) | cell-free assay | competition with immobilised ligand | 100%
CSNK1D (Homo sapiens, UniProt P48730) | cell-free assay | competition with immobilised ligand | 100%
STK10 (Homo sapiens, UniProt O94804) | cell-free assay | competition with immobilised ligand | 100%
EGFR (Homo sapiens, UniProt P00533, del747-750/T751S) | cell-free assay | competition with immobilised ligand | 96%
STK36 (Homo sapiens, UniProt Q9NRP7) | cell-free assay | competition with immobilised ligand | 100%
SRPK1 (Homo sapiens, UniProt Q96SB4) | cell-free assay | competition with immobilised ligand | 100%
NEK3 (Homo sapiens, UniProt P51956) | cell-free assay | competition with immobilised ligand | 86%
CHUK (Homo sapiens, UniProt O15111) | cell-free assay | competition with immobilised ligand | 100%
Ribosomal protein S6 kinase alpha-2, N-terminal kinase domain (RPS6KA2, Homo sapiens, UniProt Q15349) | cell-free assay | competition with immobilised ligand | 100%
TTK (Homo sapiens, UniProt P33981) | cell-free assay | competition with immobilised ligand | 100%
CSNK1A1L (Homo sapiens, UniProt Q8N752) | cell-free assay | competition with immobilised ligand | 100%
WNK3 (Homo sapiens, UniProt Q9BYP7) | cell-free assay | competition with immobilised ligand | 100%
Aurora kinase C (AURKC, Homo sapiens, UniProt Q9UQB9) | cell-free assay | competition with immobilised ligand | 100%

Sample 2
Cell line: Huh-7
Concentration: 10 µM
Time: 24 h
SMILES | viability [%]
O=C(O)P(=O)(O)O | 99.1
O=C1CC2(CCCC2)CC(=O)N1CCCCN1CCN(c2ncccn2)CC1 | 98.9
CC1(C)O[C@@H]2C[C@H]3[C@@H]4C[C@H](F)C5=CC(=O)C=C[C@]5(C)[C@H]4[C@@H](O)C[C@]3(C)[C@]2(C(=O)CO)O1 | 100
CC1(C)S[C@@H]2[C@H](NC(=O)[C@H](NC(=O)N3CCNC3=O)c3ccccc3)C(=O)N2[C@H]1C(=O)O | 98.6
CC1(C)S[C@@H]2[C@H](NC(=O)Cc3ccccc3)C(=O)N2[C@H]1C(=O)O | 99.6
CC(=O)O[C@]1(C(C)=O)CC[C@H]2[C@@H]3C=C(C)C4=CC(=O)CC[C@]4(C)[C@H]3CC[C@@]21C | 89.4
CCCC1O[C@@H]2C[C@H]3[C@@H]4CCC5=CC(=O)C=C[C@]5(C)[C@H]4[C@@H](O)C[C@]3(C)[C@]2(C(=O)CO)O1 (stereo partly drawn) | 92.8
Clc1ccc(C(c2ccccc2Cl)C(Cl)Cl)cc1 (stereo not drawn) | 93.9
CC(=O)[C@@]1(O)CC[C@H]2[C@@H]3C[C@H](C)C4=CC(=O)C=C[C@]4(C)[C@@]3(F)[C@@H](O)C[C@@]21C | 103
NCCCC[C@H](N[C@@H](CCc1ccccc1)C(=O)O)C(=O)N1CCC[C@H]1C(=O)O | 100
Cc1oncc1C(=O)Nc1ccc(C(F)(F)F)cc1 | 98.9
Cc1onc(-c2ccccc2Cl)c1C(=O)N[C@@H]1C(=O)N2[C@@H]1SC(C)(C)[C@@H]2C(=O)O | 105
N[C@@H]1CON=C1O | 104
O=S(=O)(O)CCS | 99.1
C[C@H]1COc2c(N3CCN(C)CC3)c(F)cc3c(=O)c(C(=O)O)cn1c23 | 88.2
CC(C)OC(=O)C(C)(C)Oc1ccc(C(=O)c2ccc(Cl)cc2)cc1 | 99.2

Sample 3
Cell line: mouse MPNST tumor cells
Technique: high-content immunofluorescence imaging
Item: nuclear SOX9
Concentration: 10 µM
Time: 12 h
Setting: mean of 2 replicates
Baseline: DMSO control
Direction: higher = more nuclear SOX9
Compound | nuclear SOX9 intensity
Oc1ccc(OCc2ccccc2)cc1 | 125 % of DMSO
CO[C@@]1(NC(=O)CSCC#N)C(=O)N2C(C(=O)O)=C(CSc3nnnn3C)CS[C@@H]21 | 109 % of DMSO
O=C(O)c1cc(=O)c2c(Cl)cc(Cl)cc2[nH]1 | 94.1 % of DMSO
N#Cc1cc2[nH]c(=O)c(=O)[nH]c2cc1[N+](=O)[O-] | 89.2 % of DMSO
C1=Cc2ccccc2C(=C2CCN(CCCCc3nn[nH]n3)CC2)c2ccccc21 | 98.7 % of DMSO
Cn1cc(CCn2cnc(-c3cnn(C)c3)c2-c2ccc(C#N)cc2)cn1 | 102 % of DMSO
COc1ccc(-c2cnc(NCc3cccc(OC)c3)n2C)cc1 | 115 % of DMSO
CC(=O)[C@H]1CC[C@H]2[C@@H]3CC=C4C[C@@H](O)CC[C@]4(C)[C@H]3CC[C@]12C | 94.2 % of DMSO
CC(C)N(CCCNC(=O)Nc1ccc(C(C)(C)C)cc1)C[C@H]1O[C@@H](n2ccc3c(N)ncnc32)[C@H](O)[C@@H]1O | 96.7 % of DMSO
Cc1oc(-c2cccs2)cc1C(=O)O | 95.5 % of DMSO
C[C@]12CCC(=O)C=C1CC[C@@H]1[C@@H]2C(=O)C[C@@]2(C)[C@H]1CC[C@]2(O)C(=O)CO | 90.2 % of DMSO
Cc1cccc2c1NC(=O)C2(c1ccc(O)cc1)c1ccc(O)cc1 | 104 % of DMSO

Sample 4
Target: Ephrin type-A receptor 5 (EPHA5, Homo sapiens, UniProt P54756)
UniProt P54756, sequence (whole entry, looked up): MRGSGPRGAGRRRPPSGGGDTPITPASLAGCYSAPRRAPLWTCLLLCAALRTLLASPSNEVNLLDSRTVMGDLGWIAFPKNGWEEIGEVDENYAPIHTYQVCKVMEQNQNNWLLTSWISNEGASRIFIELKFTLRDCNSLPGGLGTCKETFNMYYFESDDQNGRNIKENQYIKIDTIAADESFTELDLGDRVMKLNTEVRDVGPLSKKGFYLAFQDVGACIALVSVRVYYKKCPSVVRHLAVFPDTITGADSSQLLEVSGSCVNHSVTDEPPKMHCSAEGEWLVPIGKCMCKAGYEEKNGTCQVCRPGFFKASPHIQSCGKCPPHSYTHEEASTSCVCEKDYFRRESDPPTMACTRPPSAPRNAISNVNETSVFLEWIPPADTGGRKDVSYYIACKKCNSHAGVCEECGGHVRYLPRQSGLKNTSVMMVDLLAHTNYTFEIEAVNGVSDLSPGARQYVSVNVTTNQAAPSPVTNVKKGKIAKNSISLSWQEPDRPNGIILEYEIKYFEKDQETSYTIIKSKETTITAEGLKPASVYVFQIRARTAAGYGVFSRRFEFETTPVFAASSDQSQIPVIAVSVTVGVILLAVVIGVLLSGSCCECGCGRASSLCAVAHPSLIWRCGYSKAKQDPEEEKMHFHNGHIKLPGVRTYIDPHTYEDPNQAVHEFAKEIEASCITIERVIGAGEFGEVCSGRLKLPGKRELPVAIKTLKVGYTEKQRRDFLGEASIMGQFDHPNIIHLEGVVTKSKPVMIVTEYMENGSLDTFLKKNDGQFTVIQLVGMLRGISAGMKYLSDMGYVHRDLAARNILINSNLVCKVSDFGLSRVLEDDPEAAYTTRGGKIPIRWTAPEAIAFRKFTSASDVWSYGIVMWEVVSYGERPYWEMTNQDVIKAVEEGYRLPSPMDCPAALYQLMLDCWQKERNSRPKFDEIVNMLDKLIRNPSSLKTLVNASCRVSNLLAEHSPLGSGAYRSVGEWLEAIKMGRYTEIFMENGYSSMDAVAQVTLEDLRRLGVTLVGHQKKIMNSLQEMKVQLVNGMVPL
Effect on: enzyme activity
Action: inhibitor
Concentration: 0.5 µM
Baseline: control
Compound | remaining activity
CN([C@@H](Cc1ccc(OS(=O)(=O)c2cccc3cnccc23)cc1)C(=O)N1CCN(c2ccccc2)CC1)S(=O)(=O)c1cccc2cnccc12 | 102%
O=C1C(Cl)=C(N2C(=O)CCC2=O)C(=O)c2ccccc21 | 113%
Cc1cn(-c2cc(NC(=O)c3ccc(C)c(Nc4nccc(-c5cccnc5)n4)c3)cc(C(F)(F)F)c2)cn1 | 22.6%
O=C(NC(NC(=S)Nc1ccc(F)c([N+](=O)[O-])c1)C(Cl)(Cl)Cl)C(c1ccccc1)c1ccccc1 (stereo not drawn) | 107%
Nc1cccc(-c2cc3c(Oc4cccc(O)c4)ncnc3[nH]2)c1 | 41.7%
O=C1c2ccccc2-c2n[nH]c3cccc1c23 | 102%
CCOc1nc(NC(=O)Cc2cc(OC)ccc2OC)cc(N)c1C#N | 112%
Ic1cccc(CSc2nnc(-c3ccncc3)o2)c1 | 100%
COc1cc2ncnc(Nc3ccc(O)c(Br)c3)c2cc1OC | 72.3%
Cn1nc2c3c(cccc31)C(=O)c1ccccc1-2 | 126%
c1ccc(-c2[nH]ncc2-c2ccnc3ccccc23)nc1 | 94.9%
CCN(CC)C(=O)c1ccc(Nc2nc(OCC3CCCCC3)c3[nH]cnc3n2)cc1 | 95%
C[C@@H]1CCN(C(=O)CC#N)C[C@@H]1N(C)c1ncnc2[nH]ccc12 | 99.9%
N#C/C(=C\c1ccc(O)c(O)c1)C(=O)NCc1ccccc1 | 103%
CN(C)C[C@H]1CCn2c(c(C3=C(c4cn(C)c5ccccc45)C(=O)NC3=O)c3ccccc32)C1 | 95.1%
CCN(CC)CCNC(=O)c1c(C)[nH]c(/C=C2\C(=O)Nc3ccc(Cl)cc32)c1C | 90.4%
O=c1cc(-c2cccc3c2Sc2ccccc2S3)oc(N2CCOCC2)c1 | 114%
Cc1cc2ncc(-c3ccccc3)nc2cc1C | 96.1%
N#Cc1c(NC(=O)c2cccc3ccccc23)sc2c1CCCC2 | 99.6%
Cc1nc2cc3nc(-c4cccs4)cnc3cc2n1C | 105%
O=C(Nc1cccc(Nc2nccc(Nc3cccc(C(F)(F)F)c3)n2)c1)C1CC1 | 96.2%
CCN(CC)CCNC(=O)c1c(C)[nH]c(/C=C2\C(=O)Nc3ccc(F)cc32)c1C | 87.6%
COc1cc2ncnc(Nc3cccc(Cl)c3)c2cc1OC | 68.3%
COc1cc2c(cc1OC)-c1[nH]nc(Nc3cccc(F)c3)c1C2 | 93.4%
c1ccc(-c2cnc(Nc3ccc(OCCN4CCCC4)cc3)s2)cc1 | 97%

A few entries again (sample 1):
target | effect on | technique | remaining binding
AKT2 (Homo sapiens, UniProt P31751) | cell-free assay | competition with immobilised ligand | 93%
MAP2K4 (Homo sapiens, UniProt P45985) | cell-free assay | competition with immobilised ligand | 93%
CDC42BPB (Homo sapiens, UniProt Q9Y5S2) | cell-free assay | competition with immobilised ligand | 100%
CSNK1D (Homo sapiens, UniProt P48730) | cell-free assay | competition with immobilised ligand | 100%
STK10 (Homo sapiens, UniProt O94804) | cell-free assay | competition with immobilised ligand | 100%
EGFR (Homo sapiens, UniProt P00533, del747-750/T751S) | cell-free assay | competition with immobilised ligand | 96%
STK36 (Homo sapiens, UniProt Q9NRP7) | cell-free assay | competition with immobilised ligand | 100%
SRPK1 (Homo sapiens, UniProt Q96SB4) | cell-free assay | competition with immobilised ligand | 100%
NEK3 (Homo sapiens, UniProt P51956) | cell-free assay | competition with immobilised ligand | 86%
